# Measured values of several laboratories.
# Each numbered part is a random draw from the data of one study; scales do not carry over between parts.

# Block 1
# Target: Phosphate system positive regulatory protein PHO4, full length, GST-tagged (PHO4, Saccharomyces cerevisiae, UniProt P07270, residues 1-312)
# Technique: competition protein-binding microarray
# Form: double-stranded DNA, one strand shown
# Sample: in vitro
# Tested at: 2 µM
# Setting: whole 60-bp probe, lowest competitor level
# Together with: Cbf1 competitor, 0.05 µM
# Reading: higher = stronger binding
# Residues (chain): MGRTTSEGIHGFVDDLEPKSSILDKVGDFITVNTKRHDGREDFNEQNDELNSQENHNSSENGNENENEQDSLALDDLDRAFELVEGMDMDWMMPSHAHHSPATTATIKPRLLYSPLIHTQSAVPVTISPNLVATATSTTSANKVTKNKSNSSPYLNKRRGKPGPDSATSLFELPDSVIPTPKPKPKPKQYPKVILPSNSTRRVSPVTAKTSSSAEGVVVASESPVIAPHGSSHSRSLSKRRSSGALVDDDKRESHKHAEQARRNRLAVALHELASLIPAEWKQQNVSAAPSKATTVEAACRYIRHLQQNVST
Strand,fluorescence intensity
CTACATATGTGCAAGCAGGTGACGCTTTACCCTTGAGTCTTGATTCGCTTGACGCTGCTG,5010 a.u.
TTACTCTTTAATAATCGGCAAGAAATAATTGAATTTGTCTTGATTCGCTTGACGCTGCTG,2930 a.u.
TGCGCAACAACTTTTCACGTGTAGTTATGTCTAGAAGTCTTGATTCGCTTGACGCTGCTG,12300 a.u.
TCTTACTGCCCTTATAATGTGACGCCAACTTTAGCGGTCTTGATTCGCTTGACGCTGCTG,3460 a.u.

# Block 2
# Target: Histone acetyltransferase KAT6A, winged helix 1, GST fusion (KAT6A, Homo sapiens, UniProt Q92794, residues 1-85)
# Technique: protein binding microarray
# Form: double-stranded DNA, one strand shown
# Sample: in vitro
# Tested at: not given
# Setting: 8-mer, flanks averaged, mean of 2 arrays, mostly near background
# Baseline: not given
# Reading: higher = stronger binding
# Residues (chain): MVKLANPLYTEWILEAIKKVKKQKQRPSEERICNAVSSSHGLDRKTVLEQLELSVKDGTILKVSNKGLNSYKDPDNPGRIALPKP
Strand,E-score
AAAACTCA,-0.285
AGTGAAAC,-0.134
CTCGATAA,-0.0897
GTAATAAA,0.0614
ACATAGTA,-0.0632
ACGTGCTA,-0.027
CGTTGTGC,0.136

# Block 3
# Target: Sal-like protein 4, full length isoform A (SALL4, Homo sapiens, UniProt Q9UJQ4, residues 1-1053)
# Chain of UniProt Q9UJQ4 (whole entry, looked up): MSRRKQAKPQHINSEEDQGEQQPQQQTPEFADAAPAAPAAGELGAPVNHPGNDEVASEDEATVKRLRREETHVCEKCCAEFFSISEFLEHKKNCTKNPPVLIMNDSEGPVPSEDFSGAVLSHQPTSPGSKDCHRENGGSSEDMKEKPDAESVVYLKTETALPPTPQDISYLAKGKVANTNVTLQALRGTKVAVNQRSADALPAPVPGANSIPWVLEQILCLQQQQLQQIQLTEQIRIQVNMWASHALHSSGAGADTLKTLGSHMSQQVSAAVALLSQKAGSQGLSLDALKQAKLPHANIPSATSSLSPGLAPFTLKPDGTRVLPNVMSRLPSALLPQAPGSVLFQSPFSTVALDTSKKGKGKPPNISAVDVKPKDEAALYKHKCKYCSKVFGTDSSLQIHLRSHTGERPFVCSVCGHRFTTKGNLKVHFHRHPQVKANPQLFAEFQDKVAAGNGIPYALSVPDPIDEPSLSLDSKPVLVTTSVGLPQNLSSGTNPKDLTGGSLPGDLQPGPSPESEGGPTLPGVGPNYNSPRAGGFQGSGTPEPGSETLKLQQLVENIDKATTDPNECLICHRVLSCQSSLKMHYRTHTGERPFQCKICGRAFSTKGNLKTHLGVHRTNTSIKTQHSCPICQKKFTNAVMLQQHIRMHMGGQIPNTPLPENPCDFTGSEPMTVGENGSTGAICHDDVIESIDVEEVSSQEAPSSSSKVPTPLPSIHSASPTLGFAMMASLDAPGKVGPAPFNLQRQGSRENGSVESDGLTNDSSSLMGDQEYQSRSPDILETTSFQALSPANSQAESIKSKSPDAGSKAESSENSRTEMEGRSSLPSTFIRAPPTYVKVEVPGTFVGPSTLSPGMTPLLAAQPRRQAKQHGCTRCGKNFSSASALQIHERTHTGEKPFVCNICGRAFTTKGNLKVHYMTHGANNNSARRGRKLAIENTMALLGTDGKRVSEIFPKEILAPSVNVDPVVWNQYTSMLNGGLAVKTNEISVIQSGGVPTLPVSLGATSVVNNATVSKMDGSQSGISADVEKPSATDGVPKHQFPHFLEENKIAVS
# Technique: universal PBM
# Form: double-stranded DNA, one strand shown
# Sample: in vitro
# Tested at: 600 nM
# Setting: 8-mer, flanks averaged, mean of replicates
# Reading: higher = stronger binding
Strand,E-score
GGAAATCA,0.134
CTATCTGC,-0.186
AGCGTTCC,-0.0866
GACCTTCC,-0.23
CGCAAGTA,0.0693
AAGCAACG,-0.00673
CGCCGTCC,-0.263

# Further values, each from its own experiment
Substance,target,test,system,conditions,scale,endpoint,value
"PhoQ, residues 284 288 289 292 302 303 SLANKL","PhoP, residues 12 14 15 18 19 HEGLL (Escherichia coli, UniProt P23836)","Sort-seq, item: YFP reporter",E. coli,"PhoQ-PhoP variant library, together with: 10 µM Mg2+","baseline: high Mg2+ state, higher = stronger signaling",fold induction,14.4

# Some of these lines once more (block 2):
Strand,E-score
GTAATAAA,0.0614
AAAACTCA,-0.285
